Published values from different studies.
Parts stem from different laboratories: compare values within a part only.

Study 1 — technique: universal PBM; form: double-stranded DNA, one strand shown; medium: in vitro; tested at: not given; reading: higher = stronger binding
Target: Sal-like protein 4, full length isoform B (SALL4, Homo sapiens, UniProt Q9UJQ4-2, residues 1-616)
Notes: 8-mer, flanks averaged, mean of replicates
Residues (chain): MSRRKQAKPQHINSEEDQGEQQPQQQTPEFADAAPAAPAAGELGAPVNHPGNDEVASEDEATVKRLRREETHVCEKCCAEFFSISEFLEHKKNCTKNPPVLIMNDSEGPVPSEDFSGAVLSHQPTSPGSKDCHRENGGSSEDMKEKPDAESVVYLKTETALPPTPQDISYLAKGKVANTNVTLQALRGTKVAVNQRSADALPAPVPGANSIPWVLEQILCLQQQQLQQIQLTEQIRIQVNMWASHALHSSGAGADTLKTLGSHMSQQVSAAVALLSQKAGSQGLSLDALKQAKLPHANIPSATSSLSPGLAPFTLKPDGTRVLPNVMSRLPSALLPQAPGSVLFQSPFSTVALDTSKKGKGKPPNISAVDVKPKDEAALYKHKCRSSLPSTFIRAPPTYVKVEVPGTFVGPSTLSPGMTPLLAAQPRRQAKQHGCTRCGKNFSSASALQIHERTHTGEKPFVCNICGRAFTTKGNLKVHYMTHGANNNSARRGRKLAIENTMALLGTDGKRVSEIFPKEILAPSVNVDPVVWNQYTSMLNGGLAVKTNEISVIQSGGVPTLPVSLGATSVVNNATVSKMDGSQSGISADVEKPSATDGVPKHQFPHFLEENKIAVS
Sequence	E-score
GGTGCTAA	0.00262
GATGCCAA	0.0446
CGAATTGA	-0.0613
GGAGTGAA	0.0109
CACCTGCG	-0.26
ATACCCGG	-0.132
ACTTTCGG	-0.107
CGCGCTGC	-0.266
GCTCGCAC	-0.255
AATCCTCT	-0.00972
CCCACGAG	-0.374
CGTGTCTC	0.00716
AGCGACTG	-0.0543
AGGAGCAT	0.0238
AGGGATGG	-0.145
ACGACCCA	-0.105
GCATATGC	0.112
CCTAAGAA	0.11
CGAAACCA	0.14
CCTTCTTC	-0.0824
CGTTGCAG	-0.135
CTCTCGAC	-0.231
TATGGGAA	0.178
GATCCTTA	0.0362

Study 2 — technique: RNAcompete; form: RNA; medium: in vitro; tested at: 20 nM; notes: 7-mer, probes averaged, single round; reference: mean of 7-mers; reading: higher = stronger binding
Target: PABPC1L2, full length, GST fusion (mouse, UniProt A0ABA7IW68)
Residues (chain): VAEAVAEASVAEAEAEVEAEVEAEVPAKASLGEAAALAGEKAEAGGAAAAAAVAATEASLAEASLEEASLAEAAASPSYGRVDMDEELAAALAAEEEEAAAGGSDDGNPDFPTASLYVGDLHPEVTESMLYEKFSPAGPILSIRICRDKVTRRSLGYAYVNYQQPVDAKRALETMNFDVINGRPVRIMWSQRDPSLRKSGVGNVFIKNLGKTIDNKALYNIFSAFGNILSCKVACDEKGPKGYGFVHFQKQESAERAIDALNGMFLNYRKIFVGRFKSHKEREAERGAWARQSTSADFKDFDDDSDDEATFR
Sequence	7-mer Z-score
GUAAUUA	-0.142
AGGUUAU	-0.0228
UCGAGAA	0.184
UAUCACA	-0.0826
UGAACUA	0.000733
GAAUGGC	-0.00652
GUCCACG	-0.215
GUCCGAA	-0.00108
UUGUGAG	-0.306
AACUAGC	-0.0681
UGGGCAA	0.514
CUUCUGG	-0.246
AUAAGUU	-0.119
CUGGCGC	-0.226
GUCCAAG	-0.0736
GUCACCU	-0.213

Study 3 — technique: RNA Bind-n-Seq; form: RNA; medium: in vitro; tested at: 365 nM; reference: no-protein control; reading: higher = stronger binding
Target: RNA binding protein fox-1 homolog 2, RRM domain, GST-SBP tag (RBFOX2, Homo sapiens, UniProt O43251-10, residues 100-194)
Notes: natural RNA segment, single round, ends assumed
All sequences stand within: GGGAGUUCUACAGUCCGACGAUC … UGGAAUUCUCGGGUGCCAA
Target sequence (chain): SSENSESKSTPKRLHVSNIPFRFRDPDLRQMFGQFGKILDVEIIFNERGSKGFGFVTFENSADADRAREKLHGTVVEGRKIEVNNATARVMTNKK
Sequence	RBNS enrichment (R)
GAAAGCAUUUACCUUAUUUAUAUACCUGAAUGUUCCUACUACACAAAUAAACAUAUAUUAAAUUCUAGAUCAUGUGUGGUUUUCGAUGGUGGGGGUGGCGGAAGGCCAGG	0.435
CUCGACCUGAAGAUUAUCGGCUAUAAGAGAAUAAGAAUUGCAGAAAAUAACAGUGAAGUGAUUGAAACUUUCUUCUGAUGAGUUUCUCUAACCUACAGGAUGGAGUAAAA	0.416
GCUGGGGUUGAACAGAGCCUCCCACCUGGGAAGGCAGAGCAGACCUGCCCAAGAGCUCCCCACACGCCUCACGUGUUGGAGGGACUGAACACGUCCAGCCAAUCACCUGA	0.329
UGGCCUCGCCGUCUCUUUCCUCCCUCCACACACCCACUUAUUUCCUUAACCUUCUUUCCCAAUGGAGCUUGGGGGACUAUUUAUAGAUUUCAUUUUUCUCACUGAGCCAG	0.36
UGGUACAAGAUGAAGGACAACAACUGUCUCCAUGGGCCACGUGCCCUAGAAGGACUCUCCCCAACUGUCAAAGCUAAUGCUUUGAGCACUUAGCAAACCAGCAUAAGAGA	0.331
GACAGACCUCAGCAAGGGUGUGAUUGAGGAGCCCAAGUACGCCUGCGCUUGCGUGGUGGAUCCAACACCAGCCCUGCGUCGUGGGACUUGCCUCAGAUCAGCCUGCGACU	0.383
AAGGGCUAUUAAAAUAUUUUUACACCUUUGAAAAUUGCAGGCUUGGUACAAAGAGGUCUGUCAUCUUCCCCCUGGGAUAUAAGAUGAUCUAGCUCCCGGUAGAGGAUCAC	0.474
UCUUGCACUGACUCUGUGGAGGGGGUCUUCAUUCACUAAACUGACCCAGGAUGGAACACGAAACCACACGUGCCGUGACCUUUAGGUUUAUGAGUAGACAGUGUUAAUUU	0.269

Study 4 — technique: protein binding microarray; form: double-stranded DNA, one strand shown; medium: in vitro; tested at: not given; reference: not given; reading: higher = stronger binding
Target: Histone acetyltransferase KAT6A, winged helix 1, GST fusion (KAT6A, Homo sapiens, UniProt Q92794, residues 1-85)
Notes: 8-mer, flanks averaged, mean of 2 arrays, mostly near background
Construct (chain): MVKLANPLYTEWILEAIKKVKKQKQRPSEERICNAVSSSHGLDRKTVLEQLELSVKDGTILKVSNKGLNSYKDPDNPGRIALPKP
Sequence	E-score
AGTGTTAC	-0.0112
AGGGATTA	-0.147
ACATGAAC	0.0181
ATCCCCGA	0.0403
GATAAGAC	-0.0643
CCATCAGG	-0.0134
GAGACTAA	-0.158
GGTATGTA	-0.113
CTAATCTC	-0.144
GACCAATC	-0.154
GCAAATAC	-0.13
CAGGAATA	-0.00127
AAACACCC	-0.0354
AGTTCGTA	-0.0369
GATCACCC	-0.103
GGGCTACC	-0.0795
GCGGCCCC	0.399
CCCCCAAA	-0.261
CATTGCGC	0.296
AAGGTCGG	0.0077

Excerpt of the above (study 1):
Sequence	E-score
AATCCTCT	-0.00972
GATGCCAA	0.0446
AGGAGCAT	0.0238
GGAGTGAA	0.0109
